{"data": "Assay results from different studies", "note": "Every numbered part comes from another study and shows a few of its results, in no order. Positions count from the first letter of the parent shown."}
{"data": "Series 1", "target": "Sal-like protein 4, full length isoform A (SALL4, Homo sapiens, UniProt Q9UJQ4, residues 1-1053)", "technique": "universal PBM", "form": "double-stranded DNA, one strand shown", "sample": "in vitro", "tested at": "600 nM", "notes": "8-mer, flanks averaged, mean of replicates", "direction": "higher = stronger binding", "sequence of UniProt Q9UJQ4 (whole entry, looked up)": "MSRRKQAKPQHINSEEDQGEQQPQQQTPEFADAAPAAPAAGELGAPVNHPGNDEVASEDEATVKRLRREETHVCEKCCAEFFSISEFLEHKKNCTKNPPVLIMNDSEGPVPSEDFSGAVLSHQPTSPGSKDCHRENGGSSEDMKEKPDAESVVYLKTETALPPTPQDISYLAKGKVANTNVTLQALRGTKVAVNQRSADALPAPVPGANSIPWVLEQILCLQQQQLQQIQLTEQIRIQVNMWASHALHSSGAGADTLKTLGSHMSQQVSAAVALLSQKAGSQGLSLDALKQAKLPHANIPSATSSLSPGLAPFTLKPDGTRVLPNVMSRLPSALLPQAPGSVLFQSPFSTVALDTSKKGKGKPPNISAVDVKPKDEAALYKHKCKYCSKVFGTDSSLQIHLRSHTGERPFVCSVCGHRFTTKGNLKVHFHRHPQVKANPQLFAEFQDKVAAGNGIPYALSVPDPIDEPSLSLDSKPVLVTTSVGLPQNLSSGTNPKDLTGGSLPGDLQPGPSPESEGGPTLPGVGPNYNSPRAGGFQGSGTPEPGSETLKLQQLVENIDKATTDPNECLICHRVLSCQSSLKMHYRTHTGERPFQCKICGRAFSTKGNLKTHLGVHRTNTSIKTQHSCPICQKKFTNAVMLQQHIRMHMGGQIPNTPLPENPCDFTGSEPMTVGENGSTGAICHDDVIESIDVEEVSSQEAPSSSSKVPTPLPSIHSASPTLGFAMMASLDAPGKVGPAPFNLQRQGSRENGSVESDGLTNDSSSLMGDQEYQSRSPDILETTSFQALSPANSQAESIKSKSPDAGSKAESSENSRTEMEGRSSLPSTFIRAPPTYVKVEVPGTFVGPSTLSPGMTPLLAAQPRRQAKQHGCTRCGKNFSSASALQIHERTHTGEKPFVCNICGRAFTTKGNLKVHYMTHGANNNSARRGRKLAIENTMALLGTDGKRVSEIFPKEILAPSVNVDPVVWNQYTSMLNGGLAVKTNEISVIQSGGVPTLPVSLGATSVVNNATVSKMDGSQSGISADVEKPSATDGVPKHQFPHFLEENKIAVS"}
{"Sequence": "TAATTCGA", "E-score": 0.263}
{"Sequence": "CAGTGAAG", "E-score": 0.0161}
{"Sequence": "ACTGAAAC", "E-score": 0.165}
{"Sequence": "AGCCAACA", "E-score": -0.0615}
{"Sequence": "AATCGTGT", "E-score": 0.0665}
{"Sequence": "GAAAACTC", "E-score": 0.00342}
{"Sequence": "AAAATGAG", "E-score": 0.25}
{"Sequence": "GATATCCC", "E-score": 0.000915}
{"Sequence": "AAGCGATG", "E-score": 0.00382}
{"Sequence": "GAATGCAA", "E-score": 0.194}
{"Sequence": "CTAGCCTA", "E-score": -0.105}
{"Sequence": "TCAACAGA", "E-score": 0.0889}
{"Sequence": "ACTCGTCG", "E-score": -0.1}
{"Sequence": "CCTTTCCG", "E-score": -0.185}
{"Sequence": "CATTTTAA", "E-score": 0.286}
{"Sequence": "CTGTGGGC", "E-score": -0.229}
{"Sequence": "CCCGGGAC", "E-score": -0.394}
{"Sequence": "TATTCTAA", "E-score": 0.328}
{"Sequence": "GATGGCCA", "E-score": -0.12}
{"Sequence": "CGTTAGAA", "E-score": 0.179}
{"Sequence": "CCCTTTCC", "E-score": -0.276}
{"Sequence": "GGCATTTA", "E-score": -0.0646}
{"Sequence": "ATACTAAT", "E-score": 0.342}
{"Sequence": "ATCGATCA", "E-score": 0.154}
{"Sequence": "CCTACGAA", "E-score": -0.0652}
{"data": "Series 2", "target": "Histone acetyltransferase KAT6A, both winged helices, GST fusion (KAT6A, Homo sapiens, UniProt Q92794, residues 1-181)", "technique": "protein binding microarray", "form": "double-stranded DNA, one strand shown", "sample": "in vitro", "tested at": "not given", "notes": "8-mer, flanks averaged, mean of 2 arrays, mostly near background", "baseline": "not given", "direction": "higher = stronger binding", "Target sequence (chain)": "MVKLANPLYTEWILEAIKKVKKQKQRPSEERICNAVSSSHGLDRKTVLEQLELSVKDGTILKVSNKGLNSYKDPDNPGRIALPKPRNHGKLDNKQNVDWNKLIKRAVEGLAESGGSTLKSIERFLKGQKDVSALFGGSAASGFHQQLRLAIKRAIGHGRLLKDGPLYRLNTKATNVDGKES"}
{"Sequence": "GCCGTCAA", "E-score": 0.282}
{"Sequence": "ACCTGGGA", "E-score": -0.194}
{"Sequence": "AACGGTAT", "E-score": 0.137}
{"Sequence": "GATCAATC", "E-score": 0.066}
{"Sequence": "ACGGTCTC", "E-score": 0.188}
{"Sequence": "ACCGTGAC", "E-score": 0.1}
{"Sequence": "AGCAGGCA", "E-score": -0.124}
{"Sequence": "AGATGCAA", "E-score": -0.204}
{"Sequence": "ATCTAGAC", "E-score": -0.0761}
{"Sequence": "CATACCCC", "E-score": -0.054}
{"Sequence": "AGTGGAAA", "E-score": -0.116}
{"Sequence": "CAACCCTA", "E-score": -0.165}
{"Sequence": "AACGTAGG", "E-score": -0.195}
{"Sequence": "GGATAGCA", "E-score": 0.00732}
{"Sequence": "ACCTGCAC", "E-score": -0.129}
{"Sequence": "ACGATTAC", "E-score": -0.0396}
{"Sequence": "AGACGCAA", "E-score": 0.138}
{"Sequence": "AGCTTGTG", "E-score": -0.26}
{"Sequence": "CGGTGACG", "E-score": 0.137}
{"Sequence": "GCACATCC", "E-score": -0.00329}
{"data": "Series 3", "target": "CCNE1, cyclin fold, Cln2 fusion (human)", "technique": "yeast growth competition, sequencing", "sample": "yeast", "notes": "weak parent motif", "baseline": "not given", "direction": "higher = stronger binding", "parent": "HIRA docking peptide (human); SLSKRKLELEVET"}
{"Variant": "L2A", "normalised enrichment score": -0.167}
{"Variant": "L7A", "normalised enrichment score": -0.555}
{"Variant": "E12A", "normalised enrichment score": -0.541}
{"Variant": "E10A", "normalised enrichment score": -0.0117}
{"Variant": "R5K", "normalised enrichment score": 0.173}
{"Variant": "T13A", "normalised enrichment score": 0.397}
{"Variant": "S3A", "normalised enrichment score": -0.434}
{"Variant": "R5A L7A", "normalised enrichment score": 0.0965}
{"Variant": "L9F", "normalised enrichment score": 0.692}
{"Variant": "L9A", "normalised enrichment score": -0.226}
{"data": "Series 4", "target": "ABI1, truncated, D143A, DHFR fusion (Arabidopsis thaliana)", "technique": "DHFR PCA, deep sequencing", "sample": "yeast", "notes": "methotrexate growth selection, single substitutions", "with": "(+)-ABA 200 µM", "baseline": "wild-type fitted maximum", "direction": "higher = stronger binding", "parent": "PYL1, truncated, DHFR fusion (Arabidopsis thaliana); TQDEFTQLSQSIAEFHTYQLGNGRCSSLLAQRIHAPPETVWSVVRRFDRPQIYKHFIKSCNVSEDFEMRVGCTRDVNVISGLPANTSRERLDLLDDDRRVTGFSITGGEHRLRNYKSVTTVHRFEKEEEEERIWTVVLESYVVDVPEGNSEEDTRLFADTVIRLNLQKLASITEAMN"}
{"Variant": "S59I", "relative binding score [%]": 76}
{"Variant": "F124S", "relative binding score [%]": 97.1}
{"Variant": "C72G", "relative binding score [%]": 93.3}
{"Variant": "V44C", "relative binding score [%]": 84.7}
{"Variant": "D153K", "relative binding score [%]": 8.7}
{"Variant": "S11P", "relative binding score [%]": 95}
{"Variant": "P50R", "relative binding score [%]": 5.19}
{"Variant": "S140K", "relative binding score [%]": 6.17}
{"Variant": "W41F", "relative binding score [%]": 38.6}
{"Variant": "D75P", "relative binding score [%]": 11.9}
{"Variant": "E139W", "relative binding score [%]": 94.5}
{"Variant": "G81A", "relative binding score [%]": 63.2}
{"Variant": "T154L", "relative binding score [%]": 56.3}
{"Variant": "D48M", "relative binding score [%]": 7.53}
{"Variant": "S27E", "relative binding score [%]": 64.8}
{"Variant": "L91T", "relative binding score [%]": -3.37}
{"Variant": "N177G", "relative binding score [%]": 97.5}
{"Variant": "D48G", "relative binding score [%]": 66.6}
{"Variant": "D65G", "relative binding score [%]": 102}
{"Variant": "V137P", "relative binding score [%]": 2.63}
{"Variant": "T173G", "relative binding score [%]": 78.1}
{"Variant": "G107D", "relative binding score [%]": 88.7}
{"Variant": "I57C", "relative binding score [%]": 71.3}
{"Variant": "A13S", "relative binding score [%]": 98.6}
{"Variant": "K58M", "relative binding score [%]": 85.8}
{"data": "Series 5", "target": "Interferon regulatory factor 5, full length, phosphomimetic (IRF5, Homo sapiens, UniProt Q13568-2, residues 1-514, K96S/S451D/S453D/S456D/S462D)", "technique": "protein-binding microarray", "form": "double-stranded DNA, one strand shown", "sample": "in vitro", "tested at": "250 nM", "notes": "60-bp whole probe", "with": "salmon DNA 0.4 mg/ml", "baseline": "random background probes", "direction": "higher = stronger binding", "all sequences stand within": "GCCTAGCAC … GTCTTGATTCGCTTGACGCTGCTG"}
{"Sequence": "GACGGTATCGACACTGGGGAAGTGCTA", "log fluorescence": "1.63 z-score"}
{"Sequence": "GACGGACTGGGTCTCGGGGCGTGCTAG", "log fluorescence": "-0.728 z-score"}
{"Sequence": "TTTCCTCTGTCATTTTCTCTGTGCTAG", "log fluorescence": "3.03 z-score"}
{"Sequence": "TTAGGTTTCGTACTGCTTTAGTGCTAG", "log fluorescence": "4.05 z-score"}
{"Sequence": "GACGATATCAGTATCGAGACGTGCTAG", "log fluorescence": "3.53 z-score"}
{"Sequence": "TTAGATATCGGGTTTCGAATAGTGCTA", "log fluorescence": "4.23 z-score"}
{"Sequence": "GACGGTCTCGGACTGCGGACGTGCTAG", "log fluorescence": "-0.473 z-score"}
{"Sequence": "TTAGGTATCGACACTGAGTTAGTGCTA", "log fluorescence": "2.56 z-score"}
{"Sequence": "GGGGGAAATGGGAAACCCGGGGTGCTA", "log fluorescence": "0.312 z-score"}
{"Sequence": "GACGGACTGGGTATCGGCACGTGCTAG", "log fluorescence": "0.418 z-score"}
{"Sequence": "TCATTTTTGGTTTCTGGACTGTGCTAG", "log fluorescence": "3.66 z-score"}
{"Sequence": "TGGGTTGTAGGTTTTCTGAAGGTGCTA", "log fluorescence": "-0.295 z-score"}
{"Sequence": "TTAGTTTTCCTTCTCCTTTAGTGCTAG", "log fluorescence": "1.87 z-score"}
{"Sequence": "GACGTACTGCTTCTCCTGACGTGCTAG", "log fluorescence": "-0.0914 z-score"}
{"Sequence": "GACGATATCAGTATGGAGACGTGCTAG", "log fluorescence": "1.15 z-score"}
{"Sequence": "TTAGGTTTGCTTCTCCTTTAGTGCTAG", "log fluorescence": "-0.00121 z-score"}
{"Sequence": "TTAGGATTCGGGTATCGGTTAGTGCTA", "log fluorescence": "4.33 z-score"}
{"Sequence": "TTCCCTTTCTCAACCTCCAGGTGCTAG", "log fluorescence": "1.41 z-score"}
{"Sequence": "GACGGTATCGGGACTGGGGACGTGCTA", "log fluorescence": "1.13 z-score"}
{"note": "Excerpt of the above (series 5):"}
{"Sequence": "TTAGGTATCGACACTGAGTTAGTGCTA", "log fluorescence": "2.56 z-score"}
{"Sequence": "GGGGGAAATGGGAAACCCGGGGTGCTA", "log fluorescence": "0.312 z-score"}
{"Sequence": "GACGGACTGGGTATCGGCACGTGCTAG", "log fluorescence": "0.418 z-score"}
{"Sequence": "TCATTTTTGGTTTCTGGACTGTGCTAG", "log fluorescence": "3.66 z-score"}
{"Sequence": "TGGGTTGTAGGTTTTCTGAAGGTGCTA", "log fluorescence": "-0.295 z-score"}
{"Sequence": "TTAGTTTTCCTTCTCCTTTAGTGCTAG", "log fluorescence": "1.87 z-score"}
{"Sequence": "GACGTACTGCTTCTCCTGACGTGCTAG", "log fluorescence": "-0.0914 z-score"}
{"Sequence": "GACGATATCAGTATGGAGACGTGCTAG", "log fluorescence": "1.15 z-score"}
{"Sequence": "TTAGGTTTGCTTCTCCTTTAGTGCTAG", "log fluorescence": "-0.00121 z-score"}
{"Sequence": "TTAGGATTCGGGTATCGGTTAGTGCTA", "log fluorescence": "4.33 z-score"}
